Experimental data of several laboratories.
Each numbered part is a random draw from the data of one study; scales do not carry over between parts.
Sequence of UniProt Q16539 (whole entry, looked up): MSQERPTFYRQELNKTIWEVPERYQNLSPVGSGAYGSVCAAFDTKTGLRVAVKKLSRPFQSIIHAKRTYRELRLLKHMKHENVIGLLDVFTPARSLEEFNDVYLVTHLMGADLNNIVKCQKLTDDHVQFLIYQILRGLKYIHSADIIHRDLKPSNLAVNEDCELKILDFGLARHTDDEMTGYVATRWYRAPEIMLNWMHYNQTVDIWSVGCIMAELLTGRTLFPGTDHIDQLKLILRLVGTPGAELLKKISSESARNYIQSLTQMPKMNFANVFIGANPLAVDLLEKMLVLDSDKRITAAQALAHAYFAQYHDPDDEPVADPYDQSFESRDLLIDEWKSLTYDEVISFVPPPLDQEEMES
Sequence of UniProt Q8WXR4 (whole entry, looked up): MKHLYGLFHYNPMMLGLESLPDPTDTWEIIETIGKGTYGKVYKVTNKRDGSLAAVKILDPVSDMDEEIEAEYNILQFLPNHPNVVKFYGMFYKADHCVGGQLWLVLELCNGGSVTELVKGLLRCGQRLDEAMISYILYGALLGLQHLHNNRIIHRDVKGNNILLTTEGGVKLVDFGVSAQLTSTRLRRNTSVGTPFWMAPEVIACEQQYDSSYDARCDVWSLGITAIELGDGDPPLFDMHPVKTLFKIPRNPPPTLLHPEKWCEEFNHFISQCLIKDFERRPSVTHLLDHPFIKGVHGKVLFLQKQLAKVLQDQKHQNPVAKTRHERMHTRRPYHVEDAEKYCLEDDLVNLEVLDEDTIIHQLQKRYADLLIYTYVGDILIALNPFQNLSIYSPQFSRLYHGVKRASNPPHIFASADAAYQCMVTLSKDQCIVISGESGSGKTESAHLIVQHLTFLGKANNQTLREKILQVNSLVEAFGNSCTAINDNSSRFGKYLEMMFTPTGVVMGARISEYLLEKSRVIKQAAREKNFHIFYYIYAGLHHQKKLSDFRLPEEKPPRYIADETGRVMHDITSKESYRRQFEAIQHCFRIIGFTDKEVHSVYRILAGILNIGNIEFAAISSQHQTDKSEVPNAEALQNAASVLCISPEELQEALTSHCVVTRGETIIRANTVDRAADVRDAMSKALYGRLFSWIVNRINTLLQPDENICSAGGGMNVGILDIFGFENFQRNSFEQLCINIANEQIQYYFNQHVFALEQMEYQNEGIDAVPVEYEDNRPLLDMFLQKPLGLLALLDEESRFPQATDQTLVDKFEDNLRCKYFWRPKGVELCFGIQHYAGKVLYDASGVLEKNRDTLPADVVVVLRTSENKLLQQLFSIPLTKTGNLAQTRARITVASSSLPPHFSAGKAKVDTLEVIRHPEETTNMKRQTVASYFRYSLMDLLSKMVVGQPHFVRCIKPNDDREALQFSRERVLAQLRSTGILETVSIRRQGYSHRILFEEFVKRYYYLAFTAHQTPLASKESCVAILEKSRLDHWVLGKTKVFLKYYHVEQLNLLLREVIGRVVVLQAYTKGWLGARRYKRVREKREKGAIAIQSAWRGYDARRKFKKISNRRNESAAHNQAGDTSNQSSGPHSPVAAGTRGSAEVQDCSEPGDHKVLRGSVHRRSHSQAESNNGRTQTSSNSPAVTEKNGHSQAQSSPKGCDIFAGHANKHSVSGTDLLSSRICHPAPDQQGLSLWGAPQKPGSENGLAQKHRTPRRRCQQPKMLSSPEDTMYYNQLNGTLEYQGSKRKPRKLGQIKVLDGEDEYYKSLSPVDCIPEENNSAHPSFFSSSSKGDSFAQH
Sequence of UniProt P78356 (whole entry, looked up): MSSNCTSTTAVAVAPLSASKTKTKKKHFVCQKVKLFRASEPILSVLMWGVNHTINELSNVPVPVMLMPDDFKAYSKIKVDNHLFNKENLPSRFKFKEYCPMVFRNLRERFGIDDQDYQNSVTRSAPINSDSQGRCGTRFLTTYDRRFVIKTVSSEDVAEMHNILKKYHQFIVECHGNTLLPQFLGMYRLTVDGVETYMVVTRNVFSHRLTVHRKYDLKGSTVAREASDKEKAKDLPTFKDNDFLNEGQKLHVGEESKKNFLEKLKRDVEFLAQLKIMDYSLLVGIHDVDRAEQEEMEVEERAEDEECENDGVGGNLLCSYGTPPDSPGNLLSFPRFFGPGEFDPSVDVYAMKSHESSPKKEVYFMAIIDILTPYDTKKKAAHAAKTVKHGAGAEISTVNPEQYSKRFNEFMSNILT
Sequence of UniProt Q9BYT3 (whole entry, looked up): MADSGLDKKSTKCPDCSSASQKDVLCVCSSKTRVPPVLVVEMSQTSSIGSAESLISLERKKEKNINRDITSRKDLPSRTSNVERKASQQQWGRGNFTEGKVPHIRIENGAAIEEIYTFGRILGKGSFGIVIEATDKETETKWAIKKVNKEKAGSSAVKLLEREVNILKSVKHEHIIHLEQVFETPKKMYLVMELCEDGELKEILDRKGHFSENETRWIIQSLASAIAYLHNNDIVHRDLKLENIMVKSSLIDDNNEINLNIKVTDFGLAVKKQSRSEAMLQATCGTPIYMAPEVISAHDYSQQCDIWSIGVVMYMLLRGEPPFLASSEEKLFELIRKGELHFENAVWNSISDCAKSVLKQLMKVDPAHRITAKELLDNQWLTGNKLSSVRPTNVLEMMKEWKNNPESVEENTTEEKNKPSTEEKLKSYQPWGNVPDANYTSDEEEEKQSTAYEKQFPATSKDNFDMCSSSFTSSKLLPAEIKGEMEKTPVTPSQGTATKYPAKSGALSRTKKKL
Sequence of UniProt Q16566 (whole entry, looked up): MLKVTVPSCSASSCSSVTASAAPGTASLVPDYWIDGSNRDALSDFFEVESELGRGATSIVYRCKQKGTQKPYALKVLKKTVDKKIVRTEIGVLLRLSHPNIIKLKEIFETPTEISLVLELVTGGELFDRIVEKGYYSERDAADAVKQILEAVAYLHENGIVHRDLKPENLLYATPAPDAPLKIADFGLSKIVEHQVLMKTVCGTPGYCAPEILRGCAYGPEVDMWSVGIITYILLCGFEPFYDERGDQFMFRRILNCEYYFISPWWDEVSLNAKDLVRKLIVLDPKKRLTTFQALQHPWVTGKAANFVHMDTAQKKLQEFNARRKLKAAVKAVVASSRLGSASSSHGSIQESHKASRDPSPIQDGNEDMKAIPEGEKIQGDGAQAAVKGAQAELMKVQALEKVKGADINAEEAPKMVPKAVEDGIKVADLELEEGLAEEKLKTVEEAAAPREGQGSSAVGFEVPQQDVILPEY
Sequence of UniProt Q9HAZ1 (whole entry, looked up): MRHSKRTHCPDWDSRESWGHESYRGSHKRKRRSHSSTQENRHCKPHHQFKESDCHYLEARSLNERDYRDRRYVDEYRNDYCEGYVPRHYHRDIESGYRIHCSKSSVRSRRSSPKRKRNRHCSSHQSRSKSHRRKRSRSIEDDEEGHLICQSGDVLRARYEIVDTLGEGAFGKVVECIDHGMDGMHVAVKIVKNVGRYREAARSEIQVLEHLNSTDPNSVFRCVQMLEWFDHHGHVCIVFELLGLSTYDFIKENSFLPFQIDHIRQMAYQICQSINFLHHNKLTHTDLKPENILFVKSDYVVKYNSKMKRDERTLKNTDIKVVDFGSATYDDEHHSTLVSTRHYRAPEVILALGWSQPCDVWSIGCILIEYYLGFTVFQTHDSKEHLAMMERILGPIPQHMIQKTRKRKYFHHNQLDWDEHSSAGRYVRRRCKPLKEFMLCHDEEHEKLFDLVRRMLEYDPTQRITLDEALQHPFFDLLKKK
Sequence of UniProt Q00536 (whole entry, looked up): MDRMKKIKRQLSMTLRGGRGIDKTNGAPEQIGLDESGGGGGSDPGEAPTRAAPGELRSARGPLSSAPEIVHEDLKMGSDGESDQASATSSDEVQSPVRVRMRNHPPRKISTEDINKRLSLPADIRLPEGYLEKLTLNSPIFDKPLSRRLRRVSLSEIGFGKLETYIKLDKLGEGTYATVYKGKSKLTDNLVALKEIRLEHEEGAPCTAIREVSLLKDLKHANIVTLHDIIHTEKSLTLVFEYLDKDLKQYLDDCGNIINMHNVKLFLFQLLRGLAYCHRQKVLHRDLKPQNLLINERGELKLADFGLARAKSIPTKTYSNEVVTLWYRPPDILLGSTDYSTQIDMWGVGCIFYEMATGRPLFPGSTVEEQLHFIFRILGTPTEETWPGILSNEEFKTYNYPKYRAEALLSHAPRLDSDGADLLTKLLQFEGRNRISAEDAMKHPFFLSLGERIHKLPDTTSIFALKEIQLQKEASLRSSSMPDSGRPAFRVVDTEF
Sequence of UniProt Q8N568 (whole entry, looked up): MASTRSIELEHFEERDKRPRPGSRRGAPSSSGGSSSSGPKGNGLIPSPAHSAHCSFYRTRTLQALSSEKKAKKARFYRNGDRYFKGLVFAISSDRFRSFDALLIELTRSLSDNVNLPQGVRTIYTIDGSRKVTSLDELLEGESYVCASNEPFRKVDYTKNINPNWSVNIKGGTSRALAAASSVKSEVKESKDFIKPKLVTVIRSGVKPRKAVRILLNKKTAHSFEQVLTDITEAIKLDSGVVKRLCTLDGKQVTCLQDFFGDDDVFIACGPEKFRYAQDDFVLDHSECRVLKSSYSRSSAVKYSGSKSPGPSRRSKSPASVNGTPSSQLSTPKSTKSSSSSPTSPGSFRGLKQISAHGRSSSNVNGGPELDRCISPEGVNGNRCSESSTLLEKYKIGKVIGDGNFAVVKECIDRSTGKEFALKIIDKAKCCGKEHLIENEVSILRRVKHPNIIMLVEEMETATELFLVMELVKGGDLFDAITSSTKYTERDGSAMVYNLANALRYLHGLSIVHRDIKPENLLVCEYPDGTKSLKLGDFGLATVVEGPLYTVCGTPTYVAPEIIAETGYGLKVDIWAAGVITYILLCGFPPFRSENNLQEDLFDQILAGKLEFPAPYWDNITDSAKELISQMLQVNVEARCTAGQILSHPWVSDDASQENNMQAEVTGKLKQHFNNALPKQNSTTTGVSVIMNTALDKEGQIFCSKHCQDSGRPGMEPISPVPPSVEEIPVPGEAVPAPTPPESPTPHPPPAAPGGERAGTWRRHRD

Sample 1 — observed: cell-free assay; method: competition with immobilised ligand; concentration: 1 µM; endpoint: remaining binding
Compound: CCC(=O)N[C@@H]1CC[C@H](C(=O)N(C)c2ccc(-c3nc4ccccc4o3)cc2)C1
MAP3K1 (Homo sapiens, UniProt Q13233): 74%
EPHA3 (Homo sapiens, UniProt P29320): 100%
PDPK1 (Homo sapiens, UniProt O15530): 100%
PIP4K2B (Homo sapiens, UniProt P78356): 45%
Tyrosine-protein kinase ABL1, phosphorylated (ABL1, Homo sapiens, UniProt P00519, F317L): 86%
STK33 (Homo sapiens, UniProt Q9BYT3): 100%
PRKACA (Homo sapiens, UniProt P17612): 100%
CDK16 (Homo sapiens, UniProt Q00536): 100%

Sample 2 — cell line: A-375; concentration: 100 µM; time: 36 h; endpoint: viability
CC(C)(Oc1ccc(Cl)cc1)C(=O)O: 116%
NCc1ccc(C(=O)O)cc1: 105%
Cc1c(C(=O)Nc2ccc(N3C[C@@H](C)O[C@@H](C)C3)nc2)cccc1-c1ccc(OC(F)(F)F)cc1: 2.95%
NC(=O)N/N=C/c1ccc([N+](=O)[O-])o1: 52.8%
Cc1cc(C2CCCCC2)n(O)c(=O)c1: 29.7%
CC(C)c1nc(CN(C)C(=O)N[C@H](C(=O)N[C@@H](Cc2ccccc2)C[C@H](O)[C@H](Cc2ccccc2)NC(=O)OCc2cncs2)C(C)C)cs1: 5.94%

Sample 3 — Compound: Oc1ccc(Nc2nc(-c3ccc(Cl)cc3)cs2)cc1; observed: enzyme activity; mode: inhibitor; concentration: 0.5 µM; reference: control; endpoint: remaining activity
TXK (Homo sapiens, UniProt P42681): 100%
DDR2 (Homo sapiens, UniProt Q16832): 94.1%
KDR (Homo sapiens, UniProt P35968): 101%
DCLK2 (Homo sapiens, UniProt Q8N568): 98.5%
MAPK1 (Homo sapiens, UniProt P28482): 106%
MARK4 (Homo sapiens, UniProt Q96L34): 103%
CLK4 (Homo sapiens, UniProt Q9HAZ1): 98.8%
CAMK4 (Homo sapiens, UniProt Q16566): 99.7%
Myosin-IIIb (MYO3B, Homo sapiens, UniProt Q8WXR4): 98.7%
AKT2 (Homo sapiens, UniProt P31751): 96.4%
Cyclin-dependent kinase 9, with cyclin K (CDK9, Homo sapiens, UniProt P50750): 102%
MAPK14 (Homo sapiens, UniProt Q16539): 98.6%
Cyclin-dependent kinase 1, with cyclin A (CDK1, Homo sapiens, UniProt P06493): 91.2%
PRKG2 (Homo sapiens, UniProt Q13237): 92.9%

Sample 4 — observed: acetyl-histone H4 peptide binding; method: AlphaScreen displacement; concentration: 50 µM; endpoint: inhibition
Target: Bromodomain-containing protein 4, BD1 (BRD4, Homo sapiens, UniProt O60885)
Cc1ccc(-c2csc3nc[nH]c(=O)c23)cc1: 10.2%
Cc1cn([C@H]2C[C@H](N=[N+]=[N-])[C@@H](CO)O2)c(=O)[nH]c1=O: 4.8%
COc1cccc(NC(=O)c2c(O)c3ccccc3[nH]c2=O)c1: 36.7%
